Experimental data collected from several papers.
A part holds a random share of what one study measured.
UniProt P08922, sequence (whole entry, looked up): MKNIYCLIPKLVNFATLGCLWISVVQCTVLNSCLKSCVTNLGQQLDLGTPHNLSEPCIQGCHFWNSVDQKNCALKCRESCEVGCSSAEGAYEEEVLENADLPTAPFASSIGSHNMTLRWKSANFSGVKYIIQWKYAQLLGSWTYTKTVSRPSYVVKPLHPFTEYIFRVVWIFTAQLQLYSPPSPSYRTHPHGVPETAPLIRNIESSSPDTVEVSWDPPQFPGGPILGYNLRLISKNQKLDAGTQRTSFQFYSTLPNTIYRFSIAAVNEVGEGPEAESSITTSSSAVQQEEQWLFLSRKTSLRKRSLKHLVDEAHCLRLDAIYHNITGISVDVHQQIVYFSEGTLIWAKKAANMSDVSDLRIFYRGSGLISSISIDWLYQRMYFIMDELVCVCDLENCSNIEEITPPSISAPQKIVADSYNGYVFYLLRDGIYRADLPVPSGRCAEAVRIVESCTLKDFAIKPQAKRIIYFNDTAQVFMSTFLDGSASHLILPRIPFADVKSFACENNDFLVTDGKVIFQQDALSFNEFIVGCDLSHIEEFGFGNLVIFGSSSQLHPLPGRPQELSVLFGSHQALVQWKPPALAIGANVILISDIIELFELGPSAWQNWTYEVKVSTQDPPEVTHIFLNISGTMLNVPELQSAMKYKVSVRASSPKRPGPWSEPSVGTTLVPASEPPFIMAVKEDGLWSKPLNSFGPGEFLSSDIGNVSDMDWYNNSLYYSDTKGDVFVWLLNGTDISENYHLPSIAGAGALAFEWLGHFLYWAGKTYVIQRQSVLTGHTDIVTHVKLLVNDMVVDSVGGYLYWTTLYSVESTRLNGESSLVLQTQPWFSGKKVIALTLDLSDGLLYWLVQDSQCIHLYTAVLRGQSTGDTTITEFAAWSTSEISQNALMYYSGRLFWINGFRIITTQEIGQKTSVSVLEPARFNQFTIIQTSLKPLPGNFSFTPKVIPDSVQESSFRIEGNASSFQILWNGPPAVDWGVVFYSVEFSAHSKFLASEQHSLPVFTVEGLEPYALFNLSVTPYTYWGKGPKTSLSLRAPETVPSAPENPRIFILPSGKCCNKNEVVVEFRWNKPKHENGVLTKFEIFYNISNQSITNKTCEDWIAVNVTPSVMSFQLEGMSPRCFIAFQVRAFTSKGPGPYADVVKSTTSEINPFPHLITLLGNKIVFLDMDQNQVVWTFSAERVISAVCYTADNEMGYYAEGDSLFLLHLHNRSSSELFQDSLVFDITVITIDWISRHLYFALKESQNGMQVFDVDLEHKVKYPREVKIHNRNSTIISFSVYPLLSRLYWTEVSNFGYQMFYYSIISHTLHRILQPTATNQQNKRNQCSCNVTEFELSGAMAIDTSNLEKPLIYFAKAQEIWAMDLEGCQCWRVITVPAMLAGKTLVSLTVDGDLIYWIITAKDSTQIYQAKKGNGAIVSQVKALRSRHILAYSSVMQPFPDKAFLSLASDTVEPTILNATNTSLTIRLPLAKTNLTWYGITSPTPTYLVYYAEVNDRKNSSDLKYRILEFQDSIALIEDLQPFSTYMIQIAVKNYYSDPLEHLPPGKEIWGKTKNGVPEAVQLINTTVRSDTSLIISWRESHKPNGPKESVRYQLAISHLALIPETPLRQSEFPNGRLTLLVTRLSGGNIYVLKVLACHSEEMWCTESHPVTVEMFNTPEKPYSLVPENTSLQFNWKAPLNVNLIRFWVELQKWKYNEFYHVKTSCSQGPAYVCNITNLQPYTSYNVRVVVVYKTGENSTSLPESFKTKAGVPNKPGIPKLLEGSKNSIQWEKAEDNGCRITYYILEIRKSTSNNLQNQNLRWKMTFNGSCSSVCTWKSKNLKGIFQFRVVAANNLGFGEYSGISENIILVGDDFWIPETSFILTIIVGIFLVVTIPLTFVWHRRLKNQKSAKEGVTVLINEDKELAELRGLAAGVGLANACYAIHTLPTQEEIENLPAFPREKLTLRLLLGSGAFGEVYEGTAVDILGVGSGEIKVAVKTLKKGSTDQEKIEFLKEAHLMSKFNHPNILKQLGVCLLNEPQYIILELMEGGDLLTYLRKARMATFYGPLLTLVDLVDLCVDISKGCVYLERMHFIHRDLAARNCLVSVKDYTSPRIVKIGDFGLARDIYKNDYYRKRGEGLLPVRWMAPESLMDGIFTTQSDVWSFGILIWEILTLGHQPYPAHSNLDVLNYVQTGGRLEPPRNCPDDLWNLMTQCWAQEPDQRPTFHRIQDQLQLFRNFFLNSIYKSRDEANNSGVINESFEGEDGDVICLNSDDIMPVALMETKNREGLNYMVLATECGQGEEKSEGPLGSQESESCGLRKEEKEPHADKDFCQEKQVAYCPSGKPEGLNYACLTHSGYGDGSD
UniProt P46734, sequence (whole entry, looked up): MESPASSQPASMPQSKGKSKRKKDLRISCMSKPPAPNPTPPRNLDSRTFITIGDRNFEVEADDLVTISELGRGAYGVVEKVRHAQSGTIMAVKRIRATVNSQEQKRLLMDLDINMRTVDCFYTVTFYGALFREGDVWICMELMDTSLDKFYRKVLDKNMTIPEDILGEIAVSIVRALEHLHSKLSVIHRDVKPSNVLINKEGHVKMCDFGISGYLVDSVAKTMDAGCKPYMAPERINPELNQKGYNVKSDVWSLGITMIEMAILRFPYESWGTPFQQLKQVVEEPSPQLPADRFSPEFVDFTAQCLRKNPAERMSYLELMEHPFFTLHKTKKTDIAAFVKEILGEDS
UniProt P45985, sequence (whole entry, looked up): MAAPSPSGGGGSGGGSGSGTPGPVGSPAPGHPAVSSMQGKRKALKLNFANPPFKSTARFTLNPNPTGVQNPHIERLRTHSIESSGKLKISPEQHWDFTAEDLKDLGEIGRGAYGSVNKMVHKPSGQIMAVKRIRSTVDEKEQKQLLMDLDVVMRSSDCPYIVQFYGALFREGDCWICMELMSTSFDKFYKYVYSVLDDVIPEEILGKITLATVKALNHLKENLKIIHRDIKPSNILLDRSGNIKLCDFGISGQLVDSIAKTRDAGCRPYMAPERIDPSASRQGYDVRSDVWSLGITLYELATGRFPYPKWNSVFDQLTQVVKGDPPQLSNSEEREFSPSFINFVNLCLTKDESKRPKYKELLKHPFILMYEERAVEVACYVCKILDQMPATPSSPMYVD
UniProt Q14680, sequence (whole entry, looked up): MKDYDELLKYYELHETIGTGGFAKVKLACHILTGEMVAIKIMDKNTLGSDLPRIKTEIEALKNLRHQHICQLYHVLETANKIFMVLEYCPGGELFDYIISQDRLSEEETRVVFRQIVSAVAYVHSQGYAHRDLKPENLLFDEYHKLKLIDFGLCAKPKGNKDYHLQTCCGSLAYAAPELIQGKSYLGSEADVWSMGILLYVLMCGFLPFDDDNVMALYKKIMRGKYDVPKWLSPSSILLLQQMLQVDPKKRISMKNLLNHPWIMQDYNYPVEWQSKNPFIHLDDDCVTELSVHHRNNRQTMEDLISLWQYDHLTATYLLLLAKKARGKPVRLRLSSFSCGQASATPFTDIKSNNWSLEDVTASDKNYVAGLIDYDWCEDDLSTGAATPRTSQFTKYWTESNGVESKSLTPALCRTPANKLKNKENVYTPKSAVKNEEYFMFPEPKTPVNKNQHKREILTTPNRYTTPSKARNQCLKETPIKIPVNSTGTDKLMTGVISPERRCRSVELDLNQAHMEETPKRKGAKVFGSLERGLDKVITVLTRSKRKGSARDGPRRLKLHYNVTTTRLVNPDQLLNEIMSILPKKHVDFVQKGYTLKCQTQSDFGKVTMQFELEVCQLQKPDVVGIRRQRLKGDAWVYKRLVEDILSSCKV

Sample 1 — effect on: enzyme activity; action: inhibitor; tested at: 0.5 µM; relative to: control
Target: Calcium/calmodulin-dependent protein kinase type 1B (PNCK, Homo sapiens, UniProt Q6P2M8)
UniProt Q6P2M8, sequence (whole entry, looked up): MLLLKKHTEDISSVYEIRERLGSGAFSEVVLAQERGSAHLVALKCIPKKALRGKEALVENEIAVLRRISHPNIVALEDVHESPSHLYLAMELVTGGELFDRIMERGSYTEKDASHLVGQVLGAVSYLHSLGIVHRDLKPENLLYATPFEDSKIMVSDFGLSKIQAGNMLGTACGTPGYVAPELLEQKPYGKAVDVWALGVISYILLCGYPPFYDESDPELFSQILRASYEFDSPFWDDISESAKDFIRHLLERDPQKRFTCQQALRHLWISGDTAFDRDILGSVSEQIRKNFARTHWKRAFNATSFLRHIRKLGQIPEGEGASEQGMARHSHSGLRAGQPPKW
SMILES	remaining activity
O=C(Nc1cccc(Nc2cc(Nc3cccc(C(F)(F)F)c3)ncn2)c1)C1CC1	101%
Nc1ccc2ncnc(NCCc3ccc(Oc4ccccc4)cc3)c2c1	98.5%
Cc1ccc(NC(=O)c2ccc(CN3CCN(C)CC3)cc2)cc1Nc1nc(-c2cccnc2)cs1	97%
Nc1[nH]nc2nc3ccccc3nc12	102%
COc1ccc(OC)c2c(=S)c3ccccc3[nH]c12	97.3%
Oc1ccc(-c2nc(-c3ccncc3)c(-c3ccc(F)cc3)[nH]2)cc1	99.7%
COc1ccc(CNC(=O)Nc2ncc([N+](=O)[O-])s2)cc1	99.3%
COc1cc2ncnc(Nc3ccc(Oc4ccccc4)cc3)c2cc1OC	97.7%
COc1ccc(C(=O)Nc2sc3c(c2C(N)=O)CCCC3)cc1OC	103%
Cc1cccc(-c2[nH]c(C(C)(C)C)nc2-c2ccc3c(c2)OCO3)n1	101%
Cn1c2ccccc2c2c3c(c4c5ccccc5n(CCC#N)c4c21)CNC3=O	103%
O=S(=O)(c1cccc2cnccc12)N1CCCNCC1	91.6%
N#CC(C#N)=C(N)/C(C#N)=C/c1ccc(O)cc1	97.3%

Sample 2 — method: RNA Bind-n-Seq; form: RNA; sample: in vitro; tested at: not given; setting: RNA with constant flanks, ends assumed; relative to: input RNA pool; reading: higher = stronger binding
Target: RING finger protein unkempt homolog, zinc fingers 1-6, GST-SBP tag (UNK, Homo sapiens, UniProt Q9C0B0, residues 30-357)
UniProt Q9C0B0, sequence (30-357, looked up): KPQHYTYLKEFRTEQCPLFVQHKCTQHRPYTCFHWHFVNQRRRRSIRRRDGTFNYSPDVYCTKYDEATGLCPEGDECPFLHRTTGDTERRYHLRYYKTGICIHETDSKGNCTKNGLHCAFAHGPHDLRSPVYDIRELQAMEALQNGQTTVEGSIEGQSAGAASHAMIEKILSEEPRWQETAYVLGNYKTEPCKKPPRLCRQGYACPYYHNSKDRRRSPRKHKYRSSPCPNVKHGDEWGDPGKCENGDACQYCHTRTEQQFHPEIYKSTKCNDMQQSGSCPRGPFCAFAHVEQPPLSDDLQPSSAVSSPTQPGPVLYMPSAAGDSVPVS
All sequences stand within: GGGAGUUCUACAGUCCGACGAUC … CAACAGAGGAUUGAGCAUCA
Strand	bound/input enrichment
GAAAAUAUAUUUAGUCGCAUAGUAGAUAUACAUGAACUUAGUGUAAAGUUACUGGGCCAUACCGAAGAUACAGUAGAAAUGACAGAUGAAGGCAGUCCCCAUCCACUAGUAGGAAGCUGC	1.5 ratio
AAGCAACUUAUGGAAACAACUACAGAAUUUACAAAAAAGCUUCGGUGUUUACUUGCCUGGCAACCGCAUUGGGAUUUUAUAGAUUCUGGAAGUAGUAUUAAUGCUCAUCCUGCUGUGGCU	0.838 ratio
AUUAUCACAGAAGAACCUGAGAUUGGCAAUAUAGAAAAACCAGUAGAAAUUUUUCAUAUAACCGAACAUUUUUGUCUUGGUAGAAGACGCCUUCAUCUCUUUGGGAGAGAUAGCACUAUC	1.52 ratio
AGCACCUGUCCACAUGGUGAGCCCGGUGCUCCCCAACCACCCCCGCCAUGAGGACCAAUGACCCGCCAGUGUAGAAUAAGUUUGGCCAGAUAAGGAGAUGGCACUGCCAAGUGAUACAUG	0.397 ratio
GAACAAGACAAUGGUGGCACCACAGAAUCUGUCAAAGAACAAGAAAUGAAGUGGACAGACUCCGCCUUACAGUACCUCCAUGAGAAUGUUCCCCCCAUUGGAAACUGACGCUUGGCUCCU	0.139 ratio
CACACAAUGUUUUUACAAGAUUUUAGACCAUUUCUAAGUAGCAAUCCACUGGACCAAGAUAACCGAGCCAAUGAGAGAGGUCACCAAACUCACACUGACUUUUGGGGACCAAGUCGGCCU	1.34 ratio
AAAUCCUCAUUGACGAUUCAAUUUGUUGAAGGCCAAUUUGUGGACUCCUACGAUCCAACCACCGAAAACACUUUUACAAAGUUGAUCACAGUAAAUGGACAAGAAUAUCAUCUUCAACUU	0.113 ratio
GAAAUGAAAUACUACAUAGUGCAUUUGAAACGCCACUUUAUGUUUCGAAACCAUCUCUGUUCCGUUUUUGAAAUGCUGUCCUACAACCUCUAUGACUUGCUGAGAAACACCAAUUUCCGA	0.204 ratio

Sample 3 — method: protein-binding microarray; form: double-stranded DNA, one strand shown; sample: in vitro; tested at: not given; reading: higher = stronger binding
Target: Protein max, full length (MAX, Homo sapiens, UniProt P61244-2, residues 1-151)
Setting: k-mer, scored over probes, only values ≥0.25
Strand	E-score
CATGGCCC	0.33
GTGCTAGA	0.267
GCATGCAC	0.43
ATGCGTCA	0.347
TAACGTGA	0.332
AGCACGCC	0.375
CACGCTTA	0.393
GTGCCCAA	0.255

Sample 4 — effect on: cell-free assay; method: competition with immobilised ligand; tested at: 1 µM
SMILES: O=C(O)[C@H]1[C@H](Cn2nnc3ccccc3c2=O)CC[C@@H]1C(=O)c1ccc(OCCC2CCOCC2)cc1
target	remaining binding [%]
MAP2K4 (Homo sapiens, UniProt P45985)	97
EGFR (Homo sapiens, UniProt P00533, del752-759)	40
MAP2K3 (Homo sapiens, UniProt P46734)	90
MELK (Homo sapiens, UniProt Q14680)	96
Ribosomal protein S6 kinase alpha-4, C-terminal kinase domain (RPS6KA4, Homo sapiens, UniProt O75676)	97
ROS1 (Homo sapiens, UniProt P08922)	95

Repeated from above (sample 1):
SMILES	remaining activity
COc1cc2ncnc(Nc3ccc(Oc4ccccc4)cc3)c2cc1OC	97.7%
COc1ccc(C(=O)Nc2sc3c(c2C(N)=O)CCCC3)cc1OC	103%
Cc1cccc(-c2[nH]c(C(C)(C)C)nc2-c2ccc3c(c2)OCO3)n1	101%
Cn1c2ccccc2c2c3c(c4c5ccccc5n(CCC#N)c4c21)CNC3=O	103%
